# Assay results of several laboratories.
# Each numbered part is a random draw from the data of one study; scales do not carry over between parts.

# Set 1 — method: protein-binding microarray; form: double-stranded DNA, one strand shown; medium: in vitro; tested at: 2540 nM top; setting: 60-bp whole probe; with: salmon DNA 0.4 mg/ml; reference: random background probes; direction: higher = stronger binding; constant ends, left off below: GCCTAGCAC … GTCTTGATTCGCTTGACGCTGCTG
# Target: Interferon regulatory factor 3, full length, phosphomimetic (IRF3, Homo sapiens, UniProt Q14653, residues 1-427, S386D/S396D/S398D/S402D/T404D/S405D)
# Target sequence (chain): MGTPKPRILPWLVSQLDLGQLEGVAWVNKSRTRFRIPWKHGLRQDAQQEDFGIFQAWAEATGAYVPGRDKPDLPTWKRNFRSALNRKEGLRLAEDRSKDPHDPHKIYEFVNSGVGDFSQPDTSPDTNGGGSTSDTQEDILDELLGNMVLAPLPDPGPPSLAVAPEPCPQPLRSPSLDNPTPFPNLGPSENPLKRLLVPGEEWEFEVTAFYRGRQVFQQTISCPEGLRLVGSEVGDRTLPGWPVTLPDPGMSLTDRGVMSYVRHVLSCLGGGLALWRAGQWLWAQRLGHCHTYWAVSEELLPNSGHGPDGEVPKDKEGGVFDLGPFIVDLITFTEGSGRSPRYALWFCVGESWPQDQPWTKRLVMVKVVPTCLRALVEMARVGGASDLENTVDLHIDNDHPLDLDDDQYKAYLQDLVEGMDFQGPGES
Oligonucleotide,fitted relative affinity [z-score]
GCCGAACTGAGTTTCGAGACGTGCTAG,2.19
TCAAATGTCCTTTCTCCAACTGTGCTA,5.17
GGCGGACTGGGTATCGGGACGTGCTAG,-0.562
TCAAATGCCCTTTTGGTACTGTGCTAG,1.41
GACGCTCTCGGTTTCGGGACGTGCTAG,2.89

# Set 2 — method: protein binding microarray; form: double-stranded DNA, one strand shown; medium: in vitro; tested at: not given; reference: not given; direction: higher = stronger binding
# Target: Histone acetyltransferase KAT6A, winged helix 2, GST fusion (KAT6A, Homo sapiens, UniProt Q92794, residues 85-181)
# Setting: 8-mer, flanks averaged, mean of 2 arrays, mostly near background
# Residues (chain): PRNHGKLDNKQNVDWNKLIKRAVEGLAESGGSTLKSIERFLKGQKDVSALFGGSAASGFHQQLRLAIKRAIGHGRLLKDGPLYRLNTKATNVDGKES
Oligonucleotide,E-score
AATTGGAA,0.144
CAAAGTAG,0.0427
CTATGCCC,0.0947
CGTGTACC,-0.0322
GAAGCGAA,0.0316
CACGTGAC,-0.337
TACCCATA,-0.188
AAAGACTT,-0.261

# Set 3 — mode: inhibitor; tested at: 20 µM
# Target: Replicase polyprotein 1ab, nsp13 helicase (rep, Severe acute respiratory syndrome coronavirus 2, UniProt P0DTD1)
SMILES,inhibition [%]
O=C(/C=C/c1ccccc1)NCCO,-4.88
Nc1ncnc2c1c(COc1cccc(Cl)c1)nn2C1CCOCC1,9.95
NCCc1ccccn1,1.83
CCCN1CCC[C@H](c2cccc(O)c2)C1,-3.31
NCCc1c[nH]cn1,4.82
[N-]=[N+]=CC(=O)CC[C@H](N)C(=O)O,-6.29
COC1(C2=NCCN2)COc2ccccc2O1 (stereo not shown),-0.48
NC(=O)CN1CCCC1=O,2.87
CCOC(=O)c1c2c3c(cccc3[nH]c1=O)C(=O)c1ccccc1-2,7.85
C[C@]12N[C@H](Cc3ccccc31)c1ccccc12,-0.14
CN1CCC(=C2c3ccccc3Sc3ccccc32)CC1,-0.62
Cc1cc(OCc2nnc(SC3CCCC3)n2-c2cccnc2)ccc1-c1ccc(S(C)(=O)=O)cc1,5.07
NC(=O)c1[nH]cnc1O,-0.26
COc1ccccc1OCC(O)CNC(C)C (stereo not shown),5.98

# Other studies, line by line
SMILES,organism,assay,system,conditions,measurement,value
COC(=O)/C=C/c1cc(O)ccc1O,SARS-CoV-2,cytopathic effect,Vero E6,10 µM,inhibition,-8.3%

# A few entries again (set 2):
Oligonucleotide,E-score
AAAGACTT,-0.261
CGTGTACC,-0.0322
AATTGGAA,0.144
CAAAGTAG,0.0427
